Measured values from different studies.
Each numbered part is a random draw from the data of one study; scales do not carry over between parts.

Series 1
Target: Ras GTPase-activating protein-binding protein 1, full length (G3BP1, Homo sapiens, UniProt Q13283)
Sequence of UniProt Q13283 (whole entry, looked up): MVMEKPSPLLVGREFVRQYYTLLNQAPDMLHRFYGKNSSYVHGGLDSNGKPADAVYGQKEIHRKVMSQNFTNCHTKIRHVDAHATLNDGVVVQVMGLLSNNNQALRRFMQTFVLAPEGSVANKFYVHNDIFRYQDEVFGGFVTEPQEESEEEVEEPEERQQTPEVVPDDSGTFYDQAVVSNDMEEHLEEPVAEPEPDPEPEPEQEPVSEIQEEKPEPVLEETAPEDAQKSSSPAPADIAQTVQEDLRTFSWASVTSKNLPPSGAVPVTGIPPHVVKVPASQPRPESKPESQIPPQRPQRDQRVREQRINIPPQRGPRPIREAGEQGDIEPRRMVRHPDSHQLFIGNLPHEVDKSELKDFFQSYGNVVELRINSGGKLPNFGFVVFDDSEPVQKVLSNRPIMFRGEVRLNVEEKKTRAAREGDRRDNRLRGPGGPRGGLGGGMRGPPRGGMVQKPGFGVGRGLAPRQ
Method: RNA Bind-n-Seq
Molecule type: RNA
Matrix: in vitro
Tested at: 200 nM
Notes: whole 134-nt RNA, ends assumed
With: 150 mM LiCl
Reference: input library
Direction: higher = stronger binding
Measurement: log2 enrichment
All molecules: 7-deaza-guanosine replaces G
Shared flanks, not repeated: GGGAGUUCUACAGUCCGACGAUC … UGGAAUUCUCGGGUGUCAAGG
UCCUGUGCUACACAUCGUAUGUACCGAAUCAAAUUUUUUUAAAUUUAAAUUUUUUUAAAAAAGUAUUAUGUUACGCCGUUCGGAUCUGCA: -2.27
GUCCUGUGCUACACAUCGUAUGUACCGAAUCGGCCCCCCGGGGCCCCCCGGCCCCCCGGAAAGUAUUAUGUUACGCCGUUCGGAUCUGCA: -2.02
CCUGUGCUACACAUCGUAUGUACCGAAUCGGGGUUUUUUGGGUUUUUUGGGUUUUUUGGGAAAGUAUUAUGUUACGCCGUUCGGAUCUGC: 0.0158
CACAGACAACACGCACCCACACAGACACAGAGGAAAGGGGUUGGGAUGGGGACAGGGUGCACAGCAGGGCGGGGUAGGACCCCAGCCCCU: 0.492
UGGGAGGUGGAUUUUGUUUAUUUUUUUAGCUCAUUUCCAGGGGUGGGAAUUUUUUUUUAAUAUGUGUCAUGAAUAAAAUUGUUUUUGAAA: -0.416
UCAAGUCCUGUGCUACACAUCGUAUGUACCGAAUCGGAAAGGAAAAAAAGGUGGAAAGUAUUAUGUUACGCCGUUCGGAUCUGCACUUCC: -0.532
UAACUUUAGAGGAGGAUCUGAUGGAUAUGGCAGUAGACGUGGAUUUGGGGAUGGCUAUAAUGGGUAUGGAGGAGGACCUGGAGGUGGCAA: 0.198
UCAAGUCCUGUGCUACACAUCGUAUGUACCGAAUCGGAAAGGAAAAAGGUUUGGAAAGUAUUAUGUUACGCCGUUCGGAUCUGCACUUCC: -1.26
CUCAAGUCCUGUGCUACACAUCGUAUGUACCGAAUCGGGGCGGCGGGGCGGGGAAAGUAUUAUGUUACGCCGUUCGGAUCUGCACUUCCA: -0.667
ACCAUGCAGGUGGGCAUCUUUGGGAAGUGGGGCAAGGGGGGGAUAGGGAGGGGGGUAACACUUUGGGAACAGGUGGUCCCAGGUCGUCUC: -0.107
CAAGUCCUGUGCUACACAUCGUAUGUACCGAAUCGGAAAAAGGAAAGGAAAAAGGAAAGUAUUAUGUUACGCCGUUCGGAUCUGCACUUC: -0.571

Series 2
Target: RING finger protein unkempt homolog, zinc fingers 1-6, GST-SBP tag (UNK, Homo sapiens, UniProt Q9C0B0, residues 30-357)
Method: RNA Bind-n-Seq
Molecule type: RNA
Matrix: in vitro
Tested at: not given
Notes: RNA with constant flanks, human and mouse sites, ends assumed
Reference: input RNA pool
Direction: higher = stronger binding
Measurement: bound/input enrichment
Shared flanks, not repeated: GGGAGUUCUACAGUCCGACGAUC … CAACAGAGGAUUGAGCAUCA
Target sequence (chain): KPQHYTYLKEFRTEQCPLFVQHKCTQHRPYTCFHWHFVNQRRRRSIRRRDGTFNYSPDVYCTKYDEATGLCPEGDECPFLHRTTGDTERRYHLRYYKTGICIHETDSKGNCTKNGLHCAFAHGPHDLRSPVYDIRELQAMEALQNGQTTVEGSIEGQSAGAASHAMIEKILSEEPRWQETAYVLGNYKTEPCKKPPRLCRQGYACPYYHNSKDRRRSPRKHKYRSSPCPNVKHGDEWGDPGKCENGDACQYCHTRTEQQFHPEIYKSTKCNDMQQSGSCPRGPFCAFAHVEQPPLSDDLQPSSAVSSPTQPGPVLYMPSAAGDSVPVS
ACUCCUACAGAUCUUAUCCUUUGUGUUCCUCAUCUGUAUUCCUGUCUAGAAGAUCGAAAUGGAGAUGUACGGAAGAAGGCCCAAGAUGCUUUGCCAUUCUUUAUGAUGCAUUUAGGAUAU: 0.325 ratio
UAUGAAUUUGACAAGUUUUGGCUUGAGGAAGAGCCAGAAAGCAUUAUGUACUUCAACUUGUACAGAGAGAAGUUUCACGAGCGGAUCAAAGGACUCUUGAUGGAUUGCAAUGCUGUGCUC: 0.181 ratio
AGUACACAAACUAAUGGACCUUCUGUUCCUAGUGAAGAAGAAAUUGUUCAGCCACUGGAUAGCACAAGAGUGGCUUCUUACAGUGGCACUGUUACUCAAGCCACAUUCACCAGGACUUAC: 0.153 ratio
AAUUAUCAAGUUUUAUUCACCUCAAAUCCCACUGGGUUCUUAAAACUUGAAAAUUCAAAUUGUAGAGAAUUAUGAGACACAAUGUGAUGUUUAGUUAAAGUCAUGCUAUACCUUUCUGGG: 1.13 ratio
GGCAUUUCACCUGAAGAAAAAUUUGUUAUUACAACAACAAGUAGGAAAGAAAUUACCUGUGAUAAUUUUGAUGAAACUGUUAAAGAUGGAGUCACCUUAUACCUGCUACAGUCGGUCAAU: 0.38 ratio
GUGCGAGGUCUCUUAGUGAAUGAGGAGAUCCUAGGGAACCAGAUCCACAUGCACGUAACAGCUAAGGAAUAUGGUGCCCGUGUCUCCAACCUACACAUGUACUCAGCUGUCUGUGCUGAC: 0.058 ratio
UAUAGCUACGCCCUUGGUCAGGGGUGGGGUGGGGCUGGUUGAGGGUGGGGGUGGGAUGGGACUAGAGGGCAACAUUGAAGGGGUUAAACAGGUUCCUGAAUUUGUUUGCCUGGGCCCAAU: 1.92 ratio
AUUUUUGAUGAAUUCCGAACAGUCCUGUGACUUCUUUCUCCUGCUCCAGUGACAGGAUGUUCUAUGACUAGAAUGAACUUGGACGUGAGAAAGAUACUUGACUCCUCAUGCAACGUGCAU: 0.0963 ratio
AGACUGGCCUACGCUGAAAACAUAGCUCUGUUGGCCGAGACGGCUCUGCGAUUCCUGGAGCUUGUGCAGCUGAAAACUCUCAACAUGGAGAACGAGCCCGAUAACGAGGAGGUAGAUGAA: 0.313 ratio
GUAGCUGGGACUACAGAAAUGCUGGUAAUUUCAGUCACUUGCUGAUGACUUCUGAUGUCCCAGCAAAUGUUGGCAUUGUUGACUGCUGAGAAGAUACUUCUGAGGACCCACGUCUAAGGU: 0.0655 ratio
GAAGAAUUGUAUUUGCAACGGGUAGCAGAAUUGGACAAAAUUACUUAUGAAAGAGACAGUUUUAGACAGGCAUAUGAAGAUCUUCGGAAACAAAGGCUUAAUGAAUUUAUGGCAGGUUUU: 0.864 ratio

Series 3
Target: Interferon regulatory factor 7, full length, phosphomimetic (IRF7, Homo sapiens, UniProt Q92985, residues 1-503, S101K/S471D/S472D/S475D/S476D/S477D/S483D/S484D/S487D)
Sequence of UniProt Q92985 (whole entry, unmodified, looked up): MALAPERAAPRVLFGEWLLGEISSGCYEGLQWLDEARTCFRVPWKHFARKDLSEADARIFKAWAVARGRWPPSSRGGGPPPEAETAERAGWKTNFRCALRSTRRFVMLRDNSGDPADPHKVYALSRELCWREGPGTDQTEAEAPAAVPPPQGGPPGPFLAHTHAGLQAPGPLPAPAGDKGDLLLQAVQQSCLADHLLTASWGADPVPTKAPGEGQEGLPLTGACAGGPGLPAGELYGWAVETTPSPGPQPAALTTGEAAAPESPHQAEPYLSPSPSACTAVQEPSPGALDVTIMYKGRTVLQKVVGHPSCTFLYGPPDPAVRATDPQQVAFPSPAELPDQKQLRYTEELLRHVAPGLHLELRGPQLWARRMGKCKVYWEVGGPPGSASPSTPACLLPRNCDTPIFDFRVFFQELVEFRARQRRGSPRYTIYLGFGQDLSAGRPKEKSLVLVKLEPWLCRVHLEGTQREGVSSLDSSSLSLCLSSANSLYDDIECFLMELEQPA
Method: protein-binding microarray
Molecule type: double-stranded DNA, one strand shown
Matrix: in vitro
Tested at: 250 nM
Notes: 60-bp whole probe
With: salmon DNA 0.4 mg/ml
Reference: random background probes
Direction: higher = stronger binding
Measurement: log fluorescence
Shared flanks, not repeated: GCCTAGCAC … GTCTTGATTCGCTTGACGCTGCTG
TCACATCGTAAGCAAAAACTGTGCTAG: 0.404 z-score
GACGAACTGAGTCTCGAGATGTGCTAG: 0.909 z-score
GACGGACTGCTTCTCCTGGCGTGCTAG: -0.116 z-score
GACGATTTCAGTCTCGTGACGTGCTAG: 0.536 z-score
TTAGCACTGGACACTGGGTTAGTGCTA: -0.761 z-score
GACGGTTTCGGGTATCGGGATGTGCTA: 7.78 z-score
TCAAATGTCCTTTCTCCAACTGTGCTA: 0.582 z-score
GGCGAACTGGGGTTTCGAGACGTGCTA: 1.42 z-score
TTAGATCTCAGACAGGATTAGTGCTAG: 0.175 z-score
GACGGTTTCGGTTTCAGGACGTGCTAG: 13.9 z-score
GACGGTCTACTTTTCCTGACGTGCTAG: 0.247 z-score
TCAACTTTGGAGATGACACTGTGCTAG: -0.104 z-score
TCAATTGTGGATCTTGCACTGTGCTAG: 0.0789 z-score
TCTTTCACAAGACGAAAGGAGTGCTAG: 2.1 z-score
TTAGGTATCCTACTGCTATAGTGCTAG: 0.213 z-score
TCAAGTATTTATCTGCAACTGTGCTAG: 0.21 z-score
GACGAACTGAGTTTCGAGAAGTGCTAG: 1.15 z-score
TCAGAAATCACCCTTGGAACTGTGCTA: -0.448 z-score
TTAGATATCGGGTATCCATTAGTGCTA: 0.00276 z-score
GACGATTTCAGTATCAAGACGTGCTAG: 0.443 z-score
TTAGGACTGCAACTGCTTTAGTGCTAG: -0.222 z-score
GACGGTCTCCGACTGCTGACGTGCTAG: -0.479 z-score
GTAGATATCGGGTTTCGATTAGTGCTA: 6.38 z-score
TCAGATTTCGGGACTGGATTAGTGCTA: 0.282 z-score
GACGGACTGGGTTTTCGGGACGTGCTA: -0.549 z-score

Series 4
Target: RNA binding protein fox-1 homolog 2, RRM domain, GST-SBP tag (RBFOX2, Homo sapiens, UniProt O43251-10, residues 100-194)
Method: RNA Bind-n-Seq
Molecule type: RNA
Matrix: in vitro
Tested at: 365 nM
Notes: natural RNA segment, single round, ends assumed
Reference: no-protein control
Direction: higher = stronger binding
Measurement: RBNS enrichment (R)
Shared flanks, not repeated: GGGAGUUCUACAGUCCGACGAUC … UGGAAUUCUCGGGUGCCAA
AGGUGGCCAAGGAUGCUGGAGCUGAAUCAGACGCUGACAGUUCUUCAGGCAUUUCUAUUUCACAAUCGAAUUGAACACAUUGGCCAAAUAAAGUUGAAAUUUUACCACCU: 0.742
CUUUCCUGGGCUUUGCUUUCUUAACUCCCACCAUCCAGGCCUCCUCUAGAGUCCACUGAGUCACAAUGGGGGCACAUGCUCAUGACUGUGUCACUUAGGGGCGGUCCCCA: 0.45
UUGAGGGACCCAGACCAGGUGUCUGCAGUCAGCUCCUGAGACACAGCUGGCCGGCACAACAGGUGUUACAUCAGGGGUUUCCUGUGGCCGUUUGAACUUUGAGCAUUUAU: 1.85
CCACCGCACCAGGACUGCGCCUGCUGAGAGCCAUCCCACUCCCUUUCCCCUCUUCCCUGUCUUCCCCACCUUCCCCCAACUACCCGGGCCUGACCCGGCCCCUACCAGCC: 2.97
ACCCUCUGCCCAGGGAGUCCUUGCGUCCCAUGAGGUCUUCCCGCAAGGCCUCUCAGACCCAGAUGUGACGGGGUGUGUGGCCCGAGGAAGCUGGACAGCGGCAGUGGGCC: 0.39
GGUAGGGUGAUGGCAGUGCUCCGGGAACUGGGCCUGCAGCCUUCCUCUUCUGGGACUGCUGUGAGGCAGAGGAAUGAUGGAGAAUCUAGUGUAGCAGCCUCCAGGCAGGA: 1.03
UCAGUUCAGUUUCAGCGGUGCCAACCUCUUUGCGUUUCCUUUUUGUUGAUGAGGACCCAGAGCUGCUGCACACACUCACCUCUAACCCCCUCCCCUCGCUGCUGGGCCCC: 0.648
AGUUAUAUAACUUUAUUAUGAAUAUGCUGUGAUCUUCAUUUGAUGGAACUGUGCAAGAAAAGAACAAGGAAAAAUGGAUGUUUCGCUGCAGGAUUAAGUUACAAUUAUCU: 0.443
GUAAUACAGAUUUUCAUAUCAGAGGUGGUUCUAGAGCAAUAGAAGUAUUAAGGUGAAUUUUUUUUAAGUAUUUGGGAUAGGUUUGCAGACACCUACAGUUACUGAAGUCU: 0.439
CCAAAGUACACAGAGCUAAGUAAUCAAUUGCUACACUUAUUGCACAGCUAGACACGGAUUUCAAGUGUAUCCUAAAGCUUUGAACCAAGCUUAGCUUCUCAAAGGCCUAG: 0.761
UUAGGUAUGCCUACCAAACAUCCAAAGGUAGACGUGGAGACAUUUUAAUACUACAAAACUAGGAAAAUCAGAACUCAUGGCCAUUUCCUGCCCUCCUCCAACUUGUUAAA: 0.372
UAACCUCUUUUAUAAAAAUUUUCCUAGAAGGUUUAUACUGCCUUCUUGCUUUAAAGCAAUUGGUCUAAAAUAUAUGUAAUCGUCUUAAUUAAAAAGUUGCAGUAGGGUUG: 0.542

Some of these lines once more (series 2):
ACUCCUACAGAUCUUAUCCUUUGUGUUCCUCAUCUGUAUUCCUGUCUAGAAGAUCGAAAUGGAGAUGUACGGAAGAAGGCCCAAGAUGCUUUGCCAUUCUUUAUGAUGCAUUUAGGAUAU: 0.325 ratio
UAUGAAUUUGACAAGUUUUGGCUUGAGGAAGAGCCAGAAAGCAUUAUGUACUUCAACUUGUACAGAGAGAAGUUUCACGAGCGGAUCAAAGGACUCUUGAUGGAUUGCAAUGCUGUGCUC: 0.181 ratio
AGUACACAAACUAAUGGACCUUCUGUUCCUAGUGAAGAAGAAAUUGUUCAGCCACUGGAUAGCACAAGAGUGGCUUCUUACAGUGGCACUGUUACUCAAGCCACAUUCACCAGGACUUAC: 0.153 ratio
AAUUAUCAAGUUUUAUUCACCUCAAAUCCCACUGGGUUCUUAAAACUUGAAAAUUCAAAUUGUAGAGAAUUAUGAGACACAAUGUGAUGUUUAGUUAAAGUCAUGCUAUACCUUUCUGGG: 1.13 ratio
GGCAUUUCACCUGAAGAAAAAUUUGUUAUUACAACAACAAGUAGGAAAGAAAUUACCUGUGAUAAUUUUGAUGAAACUGUUAAAGAUGGAGUCACCUUAUACCUGCUACAGUCGGUCAAU: 0.38 ratio
GUGCGAGGUCUCUUAGUGAAUGAGGAGAUCCUAGGGAACCAGAUCCACAUGCACGUAACAGCUAAGGAAUAUGGUGCCCGUGUCUCCAACCUACACAUGUACUCAGCUGUCUGUGCUGAC: 0.058 ratio
UAUAGCUACGCCCUUGGUCAGGGGUGGGGUGGGGCUGGUUGAGGGUGGGGGUGGGAUGGGACUAGAGGGCAACAUUGAAGGGGUUAAACAGGUUCCUGAAUUUGUUUGCCUGGGCCCAAU: 1.92 ratio
AUUUUUGAUGAAUUCCGAACAGUCCUGUGACUUCUUUCUCCUGCUCCAGUGACAGGAUGUUCUAUGACUAGAAUGAACUUGGACGUGAGAAAGAUACUUGACUCCUCAUGCAACGUGCAU: 0.0963 ratio
AGACUGGCCUACGCUGAAAACAUAGCUCUGUUGGCCGAGACGGCUCUGCGAUUCCUGGAGCUUGUGCAGCUGAAAACUCUCAACAUGGAGAACGAGCCCGAUAACGAGGAGGUAGAUGAA: 0.313 ratio
